Published values gathered from unrelated publications.
UCHL1: Ubiquitin carboxyl-terminal hydrolase isozyme L1 (UCHL1, Homo sapiens, UniProt P09936)
Chain of UniProt P09936 (whole entry, looked up): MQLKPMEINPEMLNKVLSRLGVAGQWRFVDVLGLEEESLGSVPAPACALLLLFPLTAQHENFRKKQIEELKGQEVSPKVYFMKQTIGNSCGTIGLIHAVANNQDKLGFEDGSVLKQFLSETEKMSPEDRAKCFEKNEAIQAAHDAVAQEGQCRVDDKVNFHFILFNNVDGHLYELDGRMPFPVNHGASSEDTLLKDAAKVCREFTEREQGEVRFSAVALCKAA

`COc1ccc([C@@H](O)c2cc(-c3ncnc4cc(N5CCOCC5)ccc34)c(F)cc2Cl)nn1`: “patients with anemia” 17% (locally advanced rectal cancer patients; 150 mg, drug-related adverse events, with: capecitabine and radiotherapy).
Under “patients with TEAE”, `O=C(Nc1nc2cccc(-c3ccc(CN4CCS(=O)(=O)CC4)cc3)n2n1)C1CC1` is recorded as 0% (measured: abdominal pain upper; rheumatoid arthritis patients; oral, 100 mg twice daily, 4 weeks).
With `CC#CC(=O)NC1CCN(C(=O)c2noc(C)c2Cn2cc(Cl)cn2)C1` (stereo not shown) the labelling was 9.32% (UCHL1; covalent, intact protein LC-MS; 12.5 µM).
For `C[C@@H](c1ccc2nccn2c1)n1nnc2ncc(-c3cnn(C)c3)nc21`, “patients with adverse events” read 1% (measured: treatment-related grade ≥3 Rash; EGFR-mutant MET-altered NSCLC; oral, dose not given, all).
Under “patients with grade 3 cardiac disorders”, `CNC(=O)c1cc(Oc2ccc(NC(=O)Nc3cc(C(C)(C)C)nn3-c3ccc4ncccc4c3)c(F)c2)ccn1` is recorded as 6% (patients; oral, dose not given, cycles 1 and 2, High AUC subgroup).
`C[C@@H](Nc1cc(F)cc(F)c1)c1cc(C(=O)N(C)C)cc2c(=O)cc(N3CCOCC3)oc12`: “patients discontinuing for AE” 0% (measured: Chills; advanced solid tumour patients; oral, dose not given, dose expansion).
`C=CC(=O)NC1CCN(c2ncc3ncnc(Nc4ccc(Oc5ccc6c(c5)ncn6C)c(C)c4)c3n2)CC1`: “patients with Pruritus” 0% (male patients; oral, dose not given, treatment-related adverse events).
`Cc1cc(-c2nnc(N)nc2-c2ccc(F)cc2)cc(Cl)n1` — result for “patients with immune-mediated AE”: 0% (measured: Arthritis; IO-naive mCRPC patients, male; oral, dose not given, treatment-related, all grades).
`CNC(=O)c1ccc(-c2cnc3ncc(Cc4ccc5ncccc5c4)n3n2)cc1F` — result for “patients with adverse event”: 0% (measured: Hypoalbuminemia; cancer patients; oral, 600 mg twice daily, all expansion cohorts, grade 3-4).
`Cc1cc(NC2CCN(C(=O)OC3CCN(C(=O)/C=C/CN(C)C)C3)CC2)n2ncc(C(C)C)c2n1` (stereo not shown) — result for “patients with adverse event”: 0% (Phase I dose escalation CTCAE v4.0, measured: Hypomagnesemia; patients with advanced solid tumours; dose not given, TIW dosing any grade).
`CCOc1c([C@H](C)n2nc(C)c3c(N)ncnc32)cc(Cl)c(F)c1[C@@H]1CNC(=O)C1` has a patients of 100% (measured: QTcF change ≤30 ms; previously treated B-cell malignancy; oral, 10 mg once daily, baseline QTcF ≤450 ms; relative to: baseline).
`COc1cc(Nc2ncc3c(n2)-c2ccc(Cl)cc2C(c2c(F)cccc2OC)=NC3)ccc1C(=O)O`: “patients with adverse event” 4% (measured: Hypoxia, grade 3; cancer patients, phase 1/2; oral, dose not given, with: pembrolizumab).
With `Nc1c(C(=O)CCl)c(=O)[nH]c(=O)n1Cc1ccccc1` the labelling was 9.43% (UCHL1; covalent, intact protein LC-MS; 12.5 µM).

Excerpt of the above:
`Cc1cc(NC2CCN(C(=O)OC3CCN(C(=O)/C=C/CN(C)C)C3)CC2)n2ncc(C(C)C)c2n1` (stereo not shown) — result for “patients with adverse event”: 0% (Phase I dose escalation CTCAE v4.0, measured: Hypomagnesemia; patients with advanced solid tumours; dose not given, TIW dosing any grade).
`CCOc1c([C@H](C)n2nc(C)c3c(N)ncnc32)cc(Cl)c(F)c1[C@@H]1CNC(=O)C1` has a patients of 100% (measured: QTcF change ≤30 ms; previously treated B-cell malignancy; oral, 10 mg once daily, baseline QTcF ≤450 ms; relative to: baseline).
